Measured values pooled from the literature.
Each line is one published result; not all experiments were run side by side. Values joined by “and” are separate records of one study, mostly repeats; a detail may differ. ± gives the spread as reported.
Inward rectifier potassium channel 4: Inward rectifier potassium channel 4 (Homo sapiens, UniProt P48050)
Sequence of UniProt P48050 (whole entry, looked up): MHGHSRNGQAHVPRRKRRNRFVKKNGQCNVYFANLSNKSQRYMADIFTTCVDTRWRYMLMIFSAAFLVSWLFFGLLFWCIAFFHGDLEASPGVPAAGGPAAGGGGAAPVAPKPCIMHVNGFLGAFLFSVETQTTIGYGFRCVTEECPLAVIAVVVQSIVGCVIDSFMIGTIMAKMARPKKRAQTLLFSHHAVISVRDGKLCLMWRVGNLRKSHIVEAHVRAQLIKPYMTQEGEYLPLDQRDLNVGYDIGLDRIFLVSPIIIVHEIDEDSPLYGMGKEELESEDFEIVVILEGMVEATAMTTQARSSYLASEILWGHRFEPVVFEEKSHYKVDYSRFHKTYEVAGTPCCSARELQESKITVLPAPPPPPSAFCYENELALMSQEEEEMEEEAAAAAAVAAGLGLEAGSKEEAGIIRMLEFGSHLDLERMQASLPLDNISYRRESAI
Urease: Urease (Canavalia ensiformis, UniProt P07374)
Sequence of UniProt P07374 (whole entry, looked up): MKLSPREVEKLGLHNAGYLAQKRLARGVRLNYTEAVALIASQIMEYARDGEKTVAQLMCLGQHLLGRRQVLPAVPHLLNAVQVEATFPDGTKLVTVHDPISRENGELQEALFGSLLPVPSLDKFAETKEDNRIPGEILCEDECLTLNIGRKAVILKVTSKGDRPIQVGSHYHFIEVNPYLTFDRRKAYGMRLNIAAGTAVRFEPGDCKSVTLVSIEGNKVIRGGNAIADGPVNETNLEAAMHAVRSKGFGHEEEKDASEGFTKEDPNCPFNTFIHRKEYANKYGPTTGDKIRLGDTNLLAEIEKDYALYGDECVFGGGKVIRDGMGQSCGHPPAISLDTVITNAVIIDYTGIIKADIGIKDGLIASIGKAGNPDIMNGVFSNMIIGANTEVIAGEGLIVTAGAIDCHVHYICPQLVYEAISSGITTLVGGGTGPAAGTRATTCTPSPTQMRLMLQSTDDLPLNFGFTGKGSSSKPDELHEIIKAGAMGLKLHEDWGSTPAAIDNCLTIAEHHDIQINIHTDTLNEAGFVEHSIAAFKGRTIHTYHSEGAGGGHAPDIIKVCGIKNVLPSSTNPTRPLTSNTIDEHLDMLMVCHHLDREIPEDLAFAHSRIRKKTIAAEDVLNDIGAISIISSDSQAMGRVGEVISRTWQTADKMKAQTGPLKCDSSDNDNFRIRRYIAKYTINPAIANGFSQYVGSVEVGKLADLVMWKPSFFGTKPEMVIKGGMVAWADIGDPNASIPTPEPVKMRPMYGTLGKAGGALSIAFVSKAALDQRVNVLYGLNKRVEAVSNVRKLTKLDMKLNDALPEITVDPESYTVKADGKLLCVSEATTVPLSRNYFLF
MAL12: Alpha-glucosidase MAL12 (MAL12, Saccharomyces cerevisiae S288c, UniProt P53341)
Sequence of UniProt P53341 (whole entry, looked up): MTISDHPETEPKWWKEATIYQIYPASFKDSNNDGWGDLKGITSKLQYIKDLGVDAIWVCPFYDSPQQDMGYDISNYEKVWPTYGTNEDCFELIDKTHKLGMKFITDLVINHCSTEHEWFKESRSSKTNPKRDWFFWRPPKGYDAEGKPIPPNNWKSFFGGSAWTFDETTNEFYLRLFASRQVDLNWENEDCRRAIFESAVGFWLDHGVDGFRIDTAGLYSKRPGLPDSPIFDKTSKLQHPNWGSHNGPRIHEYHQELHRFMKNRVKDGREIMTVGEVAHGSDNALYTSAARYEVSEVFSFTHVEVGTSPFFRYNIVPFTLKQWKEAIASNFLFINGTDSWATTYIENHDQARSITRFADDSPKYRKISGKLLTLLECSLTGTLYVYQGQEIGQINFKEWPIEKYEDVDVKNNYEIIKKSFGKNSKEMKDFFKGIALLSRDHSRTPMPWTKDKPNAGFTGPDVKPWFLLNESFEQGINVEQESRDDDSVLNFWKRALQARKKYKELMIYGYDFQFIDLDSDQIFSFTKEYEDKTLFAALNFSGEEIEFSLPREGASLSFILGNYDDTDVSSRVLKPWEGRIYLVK
Sequence of UniProt Q8WXS5 (whole entry, looked up): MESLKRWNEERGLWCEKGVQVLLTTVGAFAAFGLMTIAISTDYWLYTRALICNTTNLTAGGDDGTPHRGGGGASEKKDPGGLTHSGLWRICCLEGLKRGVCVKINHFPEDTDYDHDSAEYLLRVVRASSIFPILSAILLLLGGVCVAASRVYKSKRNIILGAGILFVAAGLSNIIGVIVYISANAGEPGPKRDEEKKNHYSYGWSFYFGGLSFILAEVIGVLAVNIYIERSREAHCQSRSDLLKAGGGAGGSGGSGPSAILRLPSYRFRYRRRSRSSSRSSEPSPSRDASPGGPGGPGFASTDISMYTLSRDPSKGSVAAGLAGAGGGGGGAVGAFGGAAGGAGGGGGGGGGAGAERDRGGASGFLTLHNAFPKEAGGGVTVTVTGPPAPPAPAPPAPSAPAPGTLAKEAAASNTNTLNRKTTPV
Sequence of UniProt Q9UNU6 (whole entry, looked up): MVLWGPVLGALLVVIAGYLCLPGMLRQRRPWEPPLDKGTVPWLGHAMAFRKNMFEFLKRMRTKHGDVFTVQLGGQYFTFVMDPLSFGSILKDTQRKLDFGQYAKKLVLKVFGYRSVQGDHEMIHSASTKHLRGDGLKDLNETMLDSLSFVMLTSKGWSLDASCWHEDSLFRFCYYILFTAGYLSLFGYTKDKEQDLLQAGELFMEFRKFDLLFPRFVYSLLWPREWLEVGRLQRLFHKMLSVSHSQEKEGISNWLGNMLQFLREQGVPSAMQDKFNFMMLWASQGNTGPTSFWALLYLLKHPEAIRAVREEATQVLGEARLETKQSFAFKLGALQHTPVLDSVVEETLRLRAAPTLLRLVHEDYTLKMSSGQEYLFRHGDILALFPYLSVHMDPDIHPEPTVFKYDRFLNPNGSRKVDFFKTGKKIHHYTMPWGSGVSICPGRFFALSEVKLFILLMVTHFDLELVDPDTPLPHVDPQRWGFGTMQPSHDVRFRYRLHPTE
Sequence of UniProt P97438 (whole entry, looked up): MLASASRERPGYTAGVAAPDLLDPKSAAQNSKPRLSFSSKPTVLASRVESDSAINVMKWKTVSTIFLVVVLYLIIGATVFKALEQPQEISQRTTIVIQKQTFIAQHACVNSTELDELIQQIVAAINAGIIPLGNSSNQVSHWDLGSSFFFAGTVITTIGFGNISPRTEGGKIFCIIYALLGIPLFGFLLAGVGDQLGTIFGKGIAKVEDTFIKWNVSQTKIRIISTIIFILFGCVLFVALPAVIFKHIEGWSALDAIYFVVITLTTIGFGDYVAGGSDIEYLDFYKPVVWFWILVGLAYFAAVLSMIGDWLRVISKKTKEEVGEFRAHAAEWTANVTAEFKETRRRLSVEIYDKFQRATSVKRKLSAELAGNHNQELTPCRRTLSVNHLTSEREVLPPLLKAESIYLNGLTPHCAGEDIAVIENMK
Sequence of UniProt Q6NS38 (whole entry, looked up): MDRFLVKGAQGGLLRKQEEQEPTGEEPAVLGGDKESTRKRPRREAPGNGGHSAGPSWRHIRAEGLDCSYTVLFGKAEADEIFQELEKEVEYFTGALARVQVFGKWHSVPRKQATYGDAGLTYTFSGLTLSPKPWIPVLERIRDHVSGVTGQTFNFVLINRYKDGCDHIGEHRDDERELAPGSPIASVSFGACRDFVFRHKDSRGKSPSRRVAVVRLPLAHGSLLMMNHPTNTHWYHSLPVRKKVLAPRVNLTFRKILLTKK
Sequence of UniProt P07384 (whole entry, looked up): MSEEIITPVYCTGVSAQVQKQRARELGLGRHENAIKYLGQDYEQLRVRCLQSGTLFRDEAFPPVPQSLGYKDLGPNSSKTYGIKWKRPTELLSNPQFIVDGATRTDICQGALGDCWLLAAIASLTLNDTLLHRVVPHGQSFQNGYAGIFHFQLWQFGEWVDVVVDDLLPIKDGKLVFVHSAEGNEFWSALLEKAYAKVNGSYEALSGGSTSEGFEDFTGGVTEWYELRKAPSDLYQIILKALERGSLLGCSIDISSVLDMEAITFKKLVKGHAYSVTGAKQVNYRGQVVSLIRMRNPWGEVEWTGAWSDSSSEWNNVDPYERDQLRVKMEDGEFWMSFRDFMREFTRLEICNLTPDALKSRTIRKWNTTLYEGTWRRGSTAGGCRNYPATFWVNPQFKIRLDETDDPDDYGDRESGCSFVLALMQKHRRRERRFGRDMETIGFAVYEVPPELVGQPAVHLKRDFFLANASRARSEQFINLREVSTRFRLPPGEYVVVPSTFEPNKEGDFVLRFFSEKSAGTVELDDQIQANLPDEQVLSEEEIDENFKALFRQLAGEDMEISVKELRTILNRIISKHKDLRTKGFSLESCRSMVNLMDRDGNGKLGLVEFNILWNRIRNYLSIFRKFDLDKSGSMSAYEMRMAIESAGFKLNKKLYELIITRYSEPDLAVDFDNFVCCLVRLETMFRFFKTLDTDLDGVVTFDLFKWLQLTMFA
Sequence of UniProt P08842 (whole entry, looked up): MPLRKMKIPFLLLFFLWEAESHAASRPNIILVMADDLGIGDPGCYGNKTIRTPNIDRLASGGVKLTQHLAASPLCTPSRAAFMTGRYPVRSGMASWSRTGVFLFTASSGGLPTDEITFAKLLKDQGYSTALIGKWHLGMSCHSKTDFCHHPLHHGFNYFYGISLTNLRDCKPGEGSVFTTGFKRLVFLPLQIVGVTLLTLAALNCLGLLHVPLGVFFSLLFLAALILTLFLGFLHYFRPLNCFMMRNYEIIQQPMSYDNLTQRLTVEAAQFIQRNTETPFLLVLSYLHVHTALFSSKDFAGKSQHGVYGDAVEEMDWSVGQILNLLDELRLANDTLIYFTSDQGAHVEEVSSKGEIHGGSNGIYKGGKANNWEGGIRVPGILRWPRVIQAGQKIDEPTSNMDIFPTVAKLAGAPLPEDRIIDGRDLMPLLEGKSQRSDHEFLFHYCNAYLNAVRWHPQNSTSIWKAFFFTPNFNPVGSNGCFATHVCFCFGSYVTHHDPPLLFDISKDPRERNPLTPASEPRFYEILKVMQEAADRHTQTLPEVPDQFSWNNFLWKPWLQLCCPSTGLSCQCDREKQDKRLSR

| Substance | target | assay | test system | setting | IC50 |
| --- | --- | --- | --- | --- | --- |
| N=c1n(Cc2ccccc2)c2ccccc2n1CC(O)COc1ccccc1 (stereo not drawn) | Inward rectifier potassium channel 4 | ion flux, inhibitor, fluorescence |  |  | 3.43 µM |
| C#CCOc1cccc2oc(-c3ccccc3)cc(=O)c12 | Cytochrome P450 2B1 (Cyp2b1, Rattus norvegicus, UniProt P00176) | enzyme activity, inhibitor | supersomes | together with: pentoxyresorufin 5 µM | > 10 µM |
| FC(F)(F)c1ccccc1N=C(S)N1CCc2ccccc2C1 | Urease | enzyme activity, inhibitor, absorbance |  |  | 26.5 µM |
| Clc1nc2n[nH]nc2nc1Cl | Genome polyprotein, NS2B-NS3 protease (dengue virus type 2, UniProt P29990) | enzyme activity, inhibitor | Dengue virus | pH 8.0, together with: 20 µM Pyr-RTKR-AMC | > 10 µM |
| C[C@@H]1O[C@H](CNS(=O)(=O)c2ccc(C#Cc3ccccc3)s2)[C@@H](O)[C@H](O)[C@@H]1O | fucose-binding lectin LecB (Pseudomonas aeruginosa, UniProt A0A0H2ZE85) |  |  |  | 0.14 µM |
| COC(=O)C1=C(C)NC(C)=C(C(=O)OCCN(C)Cc2ccccc2)C1c1cccc([N+](=O)[O-])c1 (stereo not drawn) | ABCC1 (Homo sapiens, UniProt P33527) | efflux, inhibitor, flow cytometry | SupT1 cells overexpressing ABCC1 | together with: 500 nM CellTracker Orange CMTMR | 0.6 ± 0.4 µM |
| N#CC1=C(N)Oc2c(c(=O)[nH]c3ccccc23)C1c1ccc(OCc2cn(Cc3ccc(Br)cc3)nn2)cc1 (stereo not drawn) | MAL12 | enzyme activity |  |  | 4.48 ± 0.03 µM |
| Cc1ccnc2[nH]c(-c3cccc(O)c3)cc(=O)c12 | Tubulin alpha-1A/beta chain (Sus scrofa, UniProt P02550+P02554) | tubulin polymerisation, inhibitor, absorbance |  |  | 1 µM |
| NC(=O)[C@@H]1CC[C@@H]2CN1C(=O)N2OS(=O)(=O)O | Penicillin-binding protein 1 (Staphylococcus aureus, UniProt Q2FZ94) | binding, Bocillin FL competition | Staphylococcus aureus, ATCC 29213, membranes | together with: Bocillin FL 100 µM | > 965 µM |
| CCCCCC/C=C\CC(=O)N[C@@H](CO)C(=O)N[C@H](C(=O)N[C@@H](CO)[C@@H](O)CC(=O)N[C@H](C(=O)N[C@@H]1C=CC(=O)N[C@@H](C(C)C)C(=O)N(C)[C@@H](Cc2ccc(O)cc2)C(=O)OC1)C(C)C)C(C)C | CAPN1 (Homo sapiens, UniProt P07384) | enzyme activity, inhibitor, fluorescence |  |  | 0.0565 µM |
| Nc1nc2c(ncn2[C@@H]2O[C@H](COP(=O)(O)OP(=O)(O)O)[C@@H](O)[C@H]2O)c(=O)[nH]1 | Tubulin alpha-1B chain/TUBB2B (Bos taurus, UniProt P81947+Q6B856) | tubulin assembly, inhibitor, turbidimetry |  | tubulin 30 µM, GTP 20 µM, together with: paclitaxel 30 µM | 260 ± 50 µM |
| N=c1n(Cc2ccccc2)c2ccccc2n1CC(O)COc1ccc(Cl)cc1Cl (stereo not drawn) | KCNJ13 (Homo sapiens, UniProt O60928, M125R) | ion flux, inhibitor |  |  | 4.73 µM |
| Cc1ccc(Cn2cc(COc3ccc(C4C(C#N)=C(N)Oc5c4c(=O)[nH]c4ccccc54)cc3)nn2)cc1 (stereo not drawn) | MAL12 | enzyme activity |  |  | 9.72 ± 0.18 µM |
| Cc1cc(OCC(=O)N/N=C/c2ccc(OCc3cn(Cc4ccccc4)nn3)cc2)c2c(C)cc(=O)oc2c1 | Urease | enzyme activity, inhibitor |  |  | 1.62 ± 0.32 µM |
| C[C@@H]1O[C@@H](Oc2c(-c3ccc(O)c(O)c3)oc3cc(O)cc(O)c3c2=O)[C@H](O)[C@H](O)[C@H]1O | α-glucosidase (Saccharomyces cerevisiae) | inhibitor |  | together with: pNPG | 255 ± 3.31 µM |
| Cc1nnc(CNc2cc(N3CCN(S(=O)(=O)c4ccc(F)cc4)CC3)ccc2[N+](=O)[O-])o1 | Kir1 channel protein (Aedes aegypti, UniProt L0EQS9) | ion flux, inhibitor, fluorescence |  |  | 0.441 µM |
| Cc1ccc(OCC(O)Cn2c(=N)n(Cc3ccccc3)c3ccccc32)cc1 (stereo not drawn) | Inward rectifier potassium channel 4 | ion flux, inhibitor, fluorescence |  |  | 4.15 µM |
| Cc1ccc2nc(C3CC3)n(-c3ccc4[nH]c(=O)sc4c3)c2n1 | GRIA1/CACNG8 (Homo sapiens, UniProt P42261+Q8WXS5) | calcium influx, antagonist, FLIPR | HEK293 expressing GluA1o | together with: glutamate 100 µM | 0.00141 µM |
| CC12CC3CC(C)(C1)CC(N)(C3)C2 | Gria2/CACNG8 (Rattus norvegicus, UniProt P19491+Q8WXS5) | ion current, inhibitor, whole-cell patch clamp | HEK293 | GluA2(Q) with gamma-8, -60 mV, together with: glutamate 10 mM | 48 ± 3 µM |
| C[C@@H](CNCc1ccccc1)N1C[C@H](CCCNC(=N)N)N(CCc2cccc(F)c2)C1=S | DRD1 (Homo sapiens, UniProt P21728) | receptor activation, antagonist, FLIPR |  |  | > 10 µM |

| Substance | target | assay | test system | setting | IC50 |
| --- | --- | --- | --- | --- | --- |
| Cc1ccc(-c2cc(CF)nn2-c2ccc(S(N)(=O)=O)cc2)cc1 | PTGS1 (Ovis aries, UniProt P05979) | enzyme activity, inhibitor |  |  | > 4 µM |
| COc1ccc(-c2nc(N3CCOCC3)c3sc(CN(C)c4ncc(C(=O)NO)cn4)cc3n2)cn1 | HDAC (Lucilia cuprina egg nuclear extract) | enzyme activity, inhibitor, fluorometric |  |  | 0.11 µM |
| Cl.Cl.Cl.Cl.Cl.Cl.N.N.N.N.N.N.N.N.N.N.N.N.N.N.[O-2].[O-2].[Ru+3].[Ru+3].[Ru+4] | Kcnk2 (Mus musculus, UniProt P97438) | ion current, inhibitor, two-electrode voltage clamp |  | oocytes | > 100 µM |
| CNC(CCC(N)C(=O)O)CC1OC(n2cnc3c(N)ncnc32)C(O)C1O (stereo not drawn) | SETD2 (Homo sapiens, UniProt Q9BYW2) | enzyme activity, inhibitor, radiometric methylation |  | together with: SAM and peptide at sub-Km | > 100 µM |
| CC(C)S(=O)(=O)c1cc2c(Nc3ccc4sc(C5CCCC5)nc4c3)ccnc2cc1OCCO | RIPK3 (Homo sapiens, UniProt Q9Y572) | enzyme activity, inhibitor, ADP detection |  |  | 0.016 µM |
| N=c1n(Cc2ccccc2)c2ccccc2n1CC(O)COc1ccc(Cc2ccccc2)cc1 (stereo not drawn) | Inward rectifier potassium channel 4 | ion flux, inhibitor, fluorescence |  |  | 2.8 µM |
| Clc1ccccc1C(c1ccccc1)(c1ccccc1)n1ccnc1 | 7-alpha-hydroxycholest-4-en-3-one 12-alpha-hydroxylase (Homo sapiens, UniProt Q9UNU6) | enzyme activity, inhibitor |  | 2 min, together with: 7α-hydroxycholest-4-en-3-one 0.5 µM (Km) | < 10 µM and 7.36 µM |
| CCCCc1oc2ccccc2c1C(=O)c1cc(Br)c(O)c(Br)c1 | SLC22A12 (Homo sapiens, UniProt Q96S37) |  | human cells |  | 1.9 µM |
| CC[C@H](C)C(=O)O[C@H]1CCC=C2C=C[C@H](C)[C@H](CC[C@@H]3C[C@@H](O)CC(=O)O3)[C@H]21 | KCNK18 (Homo sapiens, UniProt Q7Z418) | ion flux, inhibitor |  |  | 9.24 µM |
| Cn1cnnc1SCC(=O)C12CC3CC(CC(C3)C1)C2 | Cytochrome P450 3A4 (CYP3A4, Homo sapiens, UniProt P08684) | enzyme activity, inhibitor, fluorescence |  |  | > 100 µM |
| tannic acid | ALKBH2 (Homo sapiens, UniProt Q6NS38) | enzyme activity, inhibitor, HPLC |  | 1 h, 37 °C, 2-oxoglutarate and Fe(II) present, together with: 3-methylcytosine in single-stranded DNA | 3.9 µM |
| N#Cc1ccc(C(CCc2ccc(OS(N)(=O)=O)c(Br)c2)n2cncn2)cc1 (racemic) | Steryl-sulfatase (STS, Homo sapiens, UniProt P08842) | enzyme activity, inhibitor |  |  | > 10 µM |
| N#Cc1nc2c(nc1C#N)-c1ccc(Cl)cc1C2=O | USP7 (Homo sapiens, UniProt Q93009) |  |  |  | 5.97 µM |
| COc1cc2c(cc1OC)-c1c/c(=N\c3c(C)cc(C)cc3C)n(C)c(=O)n1CC2 | PDE2A (Homo sapiens, UniProt O00408) | enzyme activity, inhibitor, FP |  |  | 2 µM |
| CCn1c(=O)/c(=C2\Sc3cc(Cl)ccc3N2C)s/c1=C\c1scc[n+]1Cc1ccccc1 | Heat shock 70 kDa protein 1A, with Bag3 (HSPA1A, Homo sapiens, UniProt P0DMV8) | protein-protein interaction, inhibitor, flow cytometry protein interaction |  | together with: labeled Bag3 50 nM | 1.6 ± 0.3 µM |
| COc1ccccc1NC(=S)N1CCc2ccccc2C1 | Urease | enzyme activity, inhibitor, absorbance |  |  | 27.6 µM |
| O=c1cc(-c2cccc3ccccc23)[nH][nH]1 | ALPL (Homo sapiens, UniProt P05186) | enzyme activity, inhibitor, colorimetric OD405 |  | resynthesised dry powder, together with: 0.5 mM pNPP | 45.8 µM |
| CCc1ccc(NC(=O)Cn2cc(CSc3nc4ccccc4cc3/C=N/NC(N)=S)nn2)cc1 | MAL12 | enzyme activity, inhibitor |  |  | ≤ 70.3 µM |
| Cc1cc(OCC(=O)N/N=C/c2cccc(OCc3cn(Cc4ccccc4)nn3)c2)c2c(C)cc(=O)oc2c1 | Urease | enzyme activity, inhibitor |  |  | 7.93 ± 0.98 µM |

Repeated from above:
| Substance | target | assay | test system | setting | IC50 |
| --- | --- | --- | --- | --- | --- |
| N=c1n(Cc2ccccc2)c2ccccc2n1CC(O)COc1ccc(Cc2ccccc2)cc1 (stereo not drawn) | Inward rectifier potassium channel 4 | ion flux, inhibitor, fluorescence |  |  | 2.8 µM |
| CNC(CCC(N)C(=O)O)CC1OC(n2cnc3c(N)ncnc32)C(O)C1O (stereo not drawn) | SETD2 (Homo sapiens, UniProt Q9BYW2) | enzyme activity, inhibitor, radiometric methylation |  | together with: SAM and peptide at sub-Km | > 100 µM |
| N#CC1=C(N)Oc2c(c(=O)[nH]c3ccccc23)C1c1ccc(OCc2cn(Cc3ccc(Br)cc3)nn2)cc1 (stereo not drawn) | MAL12 | enzyme activity |  |  | 4.48 ± 0.03 µM |
| CCc1ccc(NC(=O)Cn2cc(CSc3nc4ccccc4cc3/C=N/NC(N)=S)nn2)cc1 | MAL12 | enzyme activity, inhibitor |  |  | ≤ 70.3 µM |
| C[C@@H]1O[C@@H](Oc2c(-c3ccc(O)c(O)c3)oc3cc(O)cc(O)c3c2=O)[C@H](O)[C@H](O)[C@H]1O | α-glucosidase (Saccharomyces cerevisiae) | inhibitor |  | together with: pNPG | 255 ± 3.31 µM |
